Measured values collected from several papers.
Each line is one published result; not all experiments were run side by side.
Target: Bifunctional epoxide hydrolase 2 (EPHX2, Homo sapiens, UniProt P34913)
Sequence of UniProt P34913 (whole entry, looked up): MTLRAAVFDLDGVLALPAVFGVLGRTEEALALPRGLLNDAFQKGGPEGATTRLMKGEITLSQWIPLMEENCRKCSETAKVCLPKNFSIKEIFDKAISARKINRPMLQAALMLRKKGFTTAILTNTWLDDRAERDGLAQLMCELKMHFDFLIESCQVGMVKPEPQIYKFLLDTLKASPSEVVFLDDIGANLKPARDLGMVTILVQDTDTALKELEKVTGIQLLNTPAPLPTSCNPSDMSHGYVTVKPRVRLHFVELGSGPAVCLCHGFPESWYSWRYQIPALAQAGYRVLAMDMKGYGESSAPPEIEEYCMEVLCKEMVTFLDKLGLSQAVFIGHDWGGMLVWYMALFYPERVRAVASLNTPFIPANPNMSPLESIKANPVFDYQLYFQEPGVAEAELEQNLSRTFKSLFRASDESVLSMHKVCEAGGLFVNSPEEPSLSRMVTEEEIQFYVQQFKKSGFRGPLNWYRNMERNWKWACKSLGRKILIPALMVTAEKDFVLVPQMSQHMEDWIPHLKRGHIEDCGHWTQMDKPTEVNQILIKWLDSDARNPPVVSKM
Effect on: enzyme activity
Mode: inhibitor

| SMILES | test | setting | IC50 |
| --- | --- | --- | --- |
| CC12CC3CC(C)(C1)CC(NC(=O)Nc1ccc(C(=O)N4CCC(NC(=O)C5CC5)CC4)cc1)(C3)C2 | – | – | 0.6 nM |
| CC12CC3(C)CC(C)(C1)CC(NC(=O)NC14CC5CC(CC(C5)C1)C4)(C2)C3 | fluorescence | – | 6.1 nM |
| COc1cc(C(=O)O)ccc1Cc1cn(C)c2ccc(NC(=O)OC3CCCC3)cc12 | fluorescence | – | 300 nM |
| CCC(=O)NC1CCN(C(=O)c2ccc(NC(=O)NC34CC5CC(C)(CC(C)(C5)C3)C4)cc2)CC1 | – | – | 0.6 nM |
| O=C(Nc1ccc(-c2nc(-c3ccccc3)cs2)cc1)C1CCN(Cc2ccc(O)cc2)CC1 | fluorescence | pH 7.4, with preincubation | 281 nM |
| CNC(=O)C1CCN(C(=O)c2ccc(NC(=O)NC34CC5CC(C)(CC(C)(C5)C3)C4)cc2)CC1 | – | – | 0.74 nM |
| O=C(/C=C/c1ccc(O)c(O)c1)NCCc1ccc(O)cc1 | – | – | 3200 nM |
| O=C(Nc1ccc(-c2nc(-c3ccccc3)cs2)cc1)C1CCN(Cc2ccccc2O)CC1 | fluorescence | pH 7.4, with preincubation | 136 nM |
| COc1cc2cc(C(=O)NCCc3ccc(O)cc3)c(C(=O)NCCc3ccc(O)cc3)cc2cc1O | – | – | 8900 nM |
| O=C(Nc1ccc(-c2nc(-c3ccccc3)cs2)cc1)C1CCN(Cc2ccccc2[N+](=O)[O-])CC1 | fluorescence | pH 7.4, with preincubation | 101 nM |
| CC12CC3CC(C)(C1)CC(NC(=O)Nc1ccc(C(=O)N4CCC[C@H](NS(C)(=O)=O)C4)cc1F)(C3)C2 | – | – | 0.11 nM |
| CC1(C)[C@H]2CC[C@]1(C)[C@@H](NC(=O)Nc1ccc(F)cc1)C2 | fluorescence | – | 4 nM |
| O=C(Nc1ccc(-c2nc(-c3ccccc3)cs2)cc1)C1CCN(Cc2cccc(O)c2)CC1 | fluorescence | pH 7.4, with preincubation | 224 nM |
